Measured values collected from several papers.
Numbered parts are unrelated; each lists some results of a single study.
Chain of UniProt Q9UM73 (whole entry, unmodified, looked up): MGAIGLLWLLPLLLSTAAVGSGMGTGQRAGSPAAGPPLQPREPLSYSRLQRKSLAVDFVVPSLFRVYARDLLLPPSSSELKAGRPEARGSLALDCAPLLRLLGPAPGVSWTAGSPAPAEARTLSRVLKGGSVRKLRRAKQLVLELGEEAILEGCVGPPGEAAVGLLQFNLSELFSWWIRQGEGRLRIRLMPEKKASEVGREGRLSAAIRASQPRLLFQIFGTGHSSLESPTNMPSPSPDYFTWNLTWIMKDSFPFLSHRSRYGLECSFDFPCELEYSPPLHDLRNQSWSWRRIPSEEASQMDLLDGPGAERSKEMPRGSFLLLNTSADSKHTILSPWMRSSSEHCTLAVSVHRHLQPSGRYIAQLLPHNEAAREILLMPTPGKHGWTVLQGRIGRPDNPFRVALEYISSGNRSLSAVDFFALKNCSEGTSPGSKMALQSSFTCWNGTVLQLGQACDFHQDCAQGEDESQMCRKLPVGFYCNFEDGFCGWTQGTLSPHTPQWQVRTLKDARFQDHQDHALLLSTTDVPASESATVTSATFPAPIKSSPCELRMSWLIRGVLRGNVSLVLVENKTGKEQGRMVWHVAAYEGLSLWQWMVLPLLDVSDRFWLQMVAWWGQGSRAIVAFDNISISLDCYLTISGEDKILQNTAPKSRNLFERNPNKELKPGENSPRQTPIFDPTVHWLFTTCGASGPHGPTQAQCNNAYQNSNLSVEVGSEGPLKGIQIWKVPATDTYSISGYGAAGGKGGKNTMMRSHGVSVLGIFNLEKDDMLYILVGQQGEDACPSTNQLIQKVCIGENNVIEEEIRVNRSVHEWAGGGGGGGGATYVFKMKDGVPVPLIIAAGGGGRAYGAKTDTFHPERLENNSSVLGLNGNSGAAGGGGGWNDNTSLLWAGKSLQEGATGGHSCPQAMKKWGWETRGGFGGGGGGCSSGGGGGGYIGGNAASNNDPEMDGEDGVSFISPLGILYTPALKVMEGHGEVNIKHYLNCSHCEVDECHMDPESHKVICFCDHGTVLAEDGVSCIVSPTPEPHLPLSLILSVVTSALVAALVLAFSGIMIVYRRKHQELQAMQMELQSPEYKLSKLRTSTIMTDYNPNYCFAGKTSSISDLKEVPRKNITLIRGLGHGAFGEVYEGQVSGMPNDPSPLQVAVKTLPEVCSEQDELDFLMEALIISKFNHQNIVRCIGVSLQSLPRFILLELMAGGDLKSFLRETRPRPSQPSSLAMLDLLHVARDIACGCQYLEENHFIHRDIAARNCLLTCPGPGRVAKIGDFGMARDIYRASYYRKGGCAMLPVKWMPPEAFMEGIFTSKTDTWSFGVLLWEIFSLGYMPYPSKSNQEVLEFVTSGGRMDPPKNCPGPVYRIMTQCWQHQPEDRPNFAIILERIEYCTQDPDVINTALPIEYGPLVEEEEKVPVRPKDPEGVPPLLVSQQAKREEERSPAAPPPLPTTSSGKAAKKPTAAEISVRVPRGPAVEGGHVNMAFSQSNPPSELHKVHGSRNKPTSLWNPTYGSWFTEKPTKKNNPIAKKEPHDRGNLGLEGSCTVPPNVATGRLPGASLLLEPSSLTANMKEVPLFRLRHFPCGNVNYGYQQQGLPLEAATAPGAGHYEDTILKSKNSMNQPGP
Chain of UniProt O43283 (whole entry, looked up): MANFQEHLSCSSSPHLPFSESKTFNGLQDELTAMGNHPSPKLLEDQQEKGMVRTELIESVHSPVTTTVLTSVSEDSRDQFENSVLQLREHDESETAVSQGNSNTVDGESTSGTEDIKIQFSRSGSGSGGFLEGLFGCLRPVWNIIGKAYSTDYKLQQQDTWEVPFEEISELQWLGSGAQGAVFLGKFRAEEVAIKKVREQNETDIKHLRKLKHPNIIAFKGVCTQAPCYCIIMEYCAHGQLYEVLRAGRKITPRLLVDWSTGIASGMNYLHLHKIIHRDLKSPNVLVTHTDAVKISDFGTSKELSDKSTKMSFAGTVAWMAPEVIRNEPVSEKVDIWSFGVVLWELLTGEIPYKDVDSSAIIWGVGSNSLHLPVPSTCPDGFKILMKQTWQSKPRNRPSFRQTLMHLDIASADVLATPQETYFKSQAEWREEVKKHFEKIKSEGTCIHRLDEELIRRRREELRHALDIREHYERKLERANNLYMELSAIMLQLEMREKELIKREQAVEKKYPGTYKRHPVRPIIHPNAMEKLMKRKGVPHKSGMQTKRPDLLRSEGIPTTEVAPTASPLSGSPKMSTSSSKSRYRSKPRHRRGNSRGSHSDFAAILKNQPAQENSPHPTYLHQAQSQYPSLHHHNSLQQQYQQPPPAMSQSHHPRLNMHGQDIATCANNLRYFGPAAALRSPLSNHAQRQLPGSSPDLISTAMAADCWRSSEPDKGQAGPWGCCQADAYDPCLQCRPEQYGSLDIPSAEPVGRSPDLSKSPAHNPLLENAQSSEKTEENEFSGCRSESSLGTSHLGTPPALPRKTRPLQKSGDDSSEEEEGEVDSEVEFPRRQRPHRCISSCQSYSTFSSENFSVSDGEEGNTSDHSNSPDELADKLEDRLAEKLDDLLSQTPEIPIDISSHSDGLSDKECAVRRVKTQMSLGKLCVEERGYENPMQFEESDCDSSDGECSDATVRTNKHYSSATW
Chain of UniProt Q8IVW4 (whole entry, looked up): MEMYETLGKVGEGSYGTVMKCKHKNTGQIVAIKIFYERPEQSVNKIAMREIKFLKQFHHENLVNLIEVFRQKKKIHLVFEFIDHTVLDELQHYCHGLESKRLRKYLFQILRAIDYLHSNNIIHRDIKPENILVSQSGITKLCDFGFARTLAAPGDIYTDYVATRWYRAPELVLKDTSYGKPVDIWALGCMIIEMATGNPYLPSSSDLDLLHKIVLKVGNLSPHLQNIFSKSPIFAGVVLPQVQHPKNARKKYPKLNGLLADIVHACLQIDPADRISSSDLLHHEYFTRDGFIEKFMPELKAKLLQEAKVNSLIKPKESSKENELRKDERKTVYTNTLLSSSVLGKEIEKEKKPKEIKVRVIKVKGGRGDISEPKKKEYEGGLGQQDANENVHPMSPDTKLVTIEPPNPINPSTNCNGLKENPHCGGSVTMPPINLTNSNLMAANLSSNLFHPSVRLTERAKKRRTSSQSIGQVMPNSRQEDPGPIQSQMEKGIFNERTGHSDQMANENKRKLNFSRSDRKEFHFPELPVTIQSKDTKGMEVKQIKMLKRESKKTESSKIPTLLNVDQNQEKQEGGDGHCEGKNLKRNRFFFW
Chain of UniProt Q06187 (whole entry, looked up): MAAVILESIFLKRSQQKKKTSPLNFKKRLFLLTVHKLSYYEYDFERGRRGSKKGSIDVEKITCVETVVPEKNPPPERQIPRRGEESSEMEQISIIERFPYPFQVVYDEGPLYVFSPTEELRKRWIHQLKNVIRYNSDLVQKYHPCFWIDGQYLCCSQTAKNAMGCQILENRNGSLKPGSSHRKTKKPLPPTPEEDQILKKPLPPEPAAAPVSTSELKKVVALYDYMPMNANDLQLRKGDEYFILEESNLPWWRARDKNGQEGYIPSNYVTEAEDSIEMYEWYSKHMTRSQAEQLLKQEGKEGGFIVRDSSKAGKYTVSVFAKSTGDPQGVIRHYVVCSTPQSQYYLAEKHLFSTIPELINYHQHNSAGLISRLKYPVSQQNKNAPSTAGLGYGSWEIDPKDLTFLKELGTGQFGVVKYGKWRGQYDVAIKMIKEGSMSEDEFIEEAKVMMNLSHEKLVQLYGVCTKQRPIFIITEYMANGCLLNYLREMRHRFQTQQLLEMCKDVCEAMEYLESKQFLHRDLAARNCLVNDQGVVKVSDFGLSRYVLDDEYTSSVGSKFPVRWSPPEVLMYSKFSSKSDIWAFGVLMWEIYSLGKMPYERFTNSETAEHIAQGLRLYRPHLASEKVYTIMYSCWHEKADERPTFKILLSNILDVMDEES
Chain of UniProt P42679 (whole entry, looked up): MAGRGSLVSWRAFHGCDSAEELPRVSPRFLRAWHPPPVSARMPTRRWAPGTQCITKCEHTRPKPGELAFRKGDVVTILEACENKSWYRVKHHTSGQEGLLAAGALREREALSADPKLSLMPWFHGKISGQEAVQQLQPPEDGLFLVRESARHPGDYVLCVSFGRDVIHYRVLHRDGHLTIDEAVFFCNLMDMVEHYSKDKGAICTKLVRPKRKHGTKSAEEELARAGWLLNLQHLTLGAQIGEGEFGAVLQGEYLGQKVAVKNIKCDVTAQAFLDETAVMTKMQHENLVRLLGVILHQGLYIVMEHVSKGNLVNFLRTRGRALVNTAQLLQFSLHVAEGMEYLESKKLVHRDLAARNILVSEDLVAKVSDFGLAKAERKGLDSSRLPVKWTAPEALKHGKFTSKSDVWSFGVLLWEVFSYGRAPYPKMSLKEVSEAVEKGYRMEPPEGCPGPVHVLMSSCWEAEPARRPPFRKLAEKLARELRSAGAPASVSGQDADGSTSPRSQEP
Chain of UniProt Q8TDR2 (whole entry, looked up): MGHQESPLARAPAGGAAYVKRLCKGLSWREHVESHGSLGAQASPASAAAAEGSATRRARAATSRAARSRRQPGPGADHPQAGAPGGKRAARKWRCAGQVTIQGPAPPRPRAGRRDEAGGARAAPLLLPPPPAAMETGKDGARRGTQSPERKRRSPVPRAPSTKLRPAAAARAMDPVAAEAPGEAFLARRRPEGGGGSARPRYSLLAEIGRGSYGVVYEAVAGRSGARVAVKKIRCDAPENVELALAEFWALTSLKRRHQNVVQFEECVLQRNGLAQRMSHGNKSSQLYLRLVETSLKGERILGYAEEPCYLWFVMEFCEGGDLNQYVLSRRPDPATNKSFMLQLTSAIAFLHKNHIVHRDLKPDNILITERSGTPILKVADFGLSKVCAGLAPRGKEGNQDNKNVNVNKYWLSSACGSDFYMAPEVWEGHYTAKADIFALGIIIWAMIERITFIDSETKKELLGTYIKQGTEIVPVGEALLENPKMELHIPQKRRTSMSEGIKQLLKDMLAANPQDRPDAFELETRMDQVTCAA

Series 1 — technique: aptamer microarray, sandwich; molecule type: DNA with 2'F-ANA; medium: in vitro; tested at: 200 nM; added: Cy3 exosite-II aptamer, 400 nM; reading: higher = stronger binding; oligonucleotide: GGTTGGTGTGGTTGG
Target: Prothrombin, mature alpha-thrombin (F2, Homo sapiens, UniProt P00734)
Setting: whole 15-mer aptamer, many near background
Modification | mean fluorescence intensity [a.u.]
2'F-ANA at 3 4 7 8 10 | 354
2'F-ANA at 1 6 7 10 12 14 | 44.8
2'F-ANA at 1 2 5 6 9 14 | 42.4
2'F-ANA at 1 4 5 10 13 15 | 48.2
2'F-ANA at 2 4 6 9 13 14 | 69.5
2'F-ANA at 1 2 6 7 9 13 | 94.9
2'F-ANA at 2 3 5 7 9 11 14 | 53.3
2'F-ANA at 2 4 5 6 9 11 12 14 | 48.1

Series 2 — observed: cell-free assay; technique: competition with immobilised ligand; tested at: 1 µM
Structure (SMILES): CCS(=O)(=O)c1cc2cc(C[C@@](O)(CC(C)(C)c3ccc(F)cc3C(N)=O)C(F)(F)F)[nH]c2cn1
target | remaining binding
CDKL3 (Homo sapiens, UniProt Q8IVW4) | 90%
MATK (Homo sapiens, UniProt P42679) | 100%
ALK (Homo sapiens, UniProt Q9UM73, C1156Y) | 100%
MAP3K13 (Homo sapiens, UniProt O43283) | 82%
FRK (Homo sapiens, UniProt P42685) | 100%
BTK (Homo sapiens, UniProt Q06187) | 100%
ALK (Homo sapiens, UniProt Q9UM73) | 100%
STK35 (Homo sapiens, UniProt Q8TDR2) | 100%

Series 3 — technique: protein binding microarray; molecule type: double-stranded DNA, one strand shown; medium: in vitro; tested at: not given; relative to: not given; reading: higher = stronger binding
Target: Histone acetyltransferase KAT6A, winged helix 1, GST fusion (KAT6A, Homo sapiens, UniProt Q92794, residues 1-85)
Setting: 8-mer, flanks averaged, mean of 2 arrays, mostly near background
Construct (chain): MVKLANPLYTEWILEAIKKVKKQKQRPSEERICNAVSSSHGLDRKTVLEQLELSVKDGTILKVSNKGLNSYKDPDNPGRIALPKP
Oligonucleotide | E-score
TAGTTAGA | -0.0939
ACGGAATC | 0.259
AGCAAAAC | -0.034
ACCCGATC | 0.0288
ACTACCGG | 0.223
ACTTGGCT | -0.242
GTGTGCAA | -0.202
ATCTCAGA | -0.223

Series 4 — observed: enzyme activity; mode: inhibitor; tested at: 0.5 µM; relative to: control
Target: RAF proto-oncogene serine/threonine-protein kinase (RAF1, Homo sapiens, UniProt P04049)
SMILES | remaining activity [%]
OCC(O)CCON=C1C(c2c(O)[nH]c3ccccc23)=Nc2ccccc21 (centres unmarked) | 100
Cn1c2ccccc2c2c3c(c4c5ccccc5n(CCC#N)c4c21)CNC3=O | 111
NCCNc1ncc(C(N)=O)c(Nc2cccc(C(F)(F)F)c2)n1 | 79
O=C1NC(=O)C(c2cn(CCCO)c3ncccc23)=C1c1cnccn1 | 100
Cc1nc(-c2ccccc2)c(-c2ccncc2)o1 | 92.6

For quick reference, copied from above (series 2):
target | remaining binding
MATK (Homo sapiens, UniProt P42679) | 100%
FRK (Homo sapiens, UniProt P42685) | 100%
STK35 (Homo sapiens, UniProt Q8TDR2) | 100%
ALK (Homo sapiens, UniProt Q9UM73) | 100%
